Measured values of several laboratories.
Numbered parts are unrelated; each lists some results of a single study.

Sample 1
Target: RING finger protein unkempt homolog, zinc fingers 1-6, GST-SBP tag (UNK, Homo sapiens, UniProt Q9C0B0, residues 30-357)
Technique: RNA Bind-n-Seq
Molecule type: RNA
Matrix: in vitro
Tested at: not given
Setting: RNA with constant flanks, human-mouse chimeric sites, ends assumed
Relative to: input RNA pool
Reading: higher = stronger binding
Constant ends, left off below: GGGAGUUCUACAGUCCGACGAUC … CAACAGAGGAUUGAGCAUCA
Target sequence (chain): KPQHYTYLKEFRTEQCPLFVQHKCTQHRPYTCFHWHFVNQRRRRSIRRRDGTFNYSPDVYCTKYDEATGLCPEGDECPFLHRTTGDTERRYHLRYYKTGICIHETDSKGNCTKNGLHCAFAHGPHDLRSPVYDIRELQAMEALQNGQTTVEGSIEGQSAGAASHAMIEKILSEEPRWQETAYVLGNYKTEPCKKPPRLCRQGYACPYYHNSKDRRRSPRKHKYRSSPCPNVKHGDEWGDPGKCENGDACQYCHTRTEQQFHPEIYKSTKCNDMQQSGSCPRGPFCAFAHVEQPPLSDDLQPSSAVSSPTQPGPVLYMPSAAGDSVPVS
| Sequence | bound/input enrichment |
| --- | --- |
| ACAGUUAUACACUGUUGGUUUGUAUUUAUAUAUUCUUGUAGUGUCUGCUUGCCUGUGACUUCUGGUAAAAUAAAAUAAGCCUUUGAAAAUAUUUUAGCAUGGUAUUUAACAUUUUCUAAA | 1.21 ratio |
| UCUUUAAAAAAAAAAUUACCUUUUCUGACAGUGCUUUCCCUCCCAUAGGUCCAGGUUCAAGCUCAAAGAGCAAAGGCUCCGCAAACAGCUCAAACAUCUGAUGAAGAAAGAUUUCUGAGA | 0.687 ratio |
| GGCCUGGGACCGUCCUGGGCUAGUACAAAUAGCGGCAUGGAGGCUCAGAGAGGAAAGUUUGUUAGUGAGGCAGUGGUUAGAGGCCGUCAUGUACGGUCCUUUACUCGAUAGAUGUGUUCU | 0.74 ratio |
| CUGAGGAAUACCACUGAGAGACCUUAAAAGAAUCAUUUGAGGGCUCUCGUUCGGGCAGAAUAGUCACUGAUCGGGAAACUGGUUCUUCCAAAGGGUUUGGUUUUGUAGACUUUAAUAGUG | 0.678 ratio |
| UGACAAGGGCACUGCAGAGCCAUGCCUUUCCUUGACAUACAGAAAAAGCUGGGCAUCAACAUAGAUCGGCACUUUAUGUUCCUAAGCGCAGAACAGCCCUAUAAGAACGCCGCUCGGUGC | 0.0944 ratio |
| UUUCUAUUGCAGCAAACGAUGCUAAGAAUUAAGGAUCCUAAGAAGUCCCUGGAUUUUUAUACGAGGGUUCUUGGACUGACGCUAAUCCAGAAGCUUGACUUCCCUGCUAUGAAGUUCUCG | 0.088 ratio |
| AUUGUUGAAGCGAAUCCACUUUUAGAAGCAUUUGGAAAUGCGAAGACUGUUCGCAACAAUAAUAGCAGUCGAUUUGGGAAAUUUGUAGAAAUUCAUUUCAAUGAAAAGAGUUCGGUUGUU | 0.38 ratio |
| CAGCGCCGAGGCCGCGGUUUCCCCCUGGGUGUGCUGAGCCGCCGCCAUGGGCAUCAAAUUUUUAGAAGUUAUCAAACCAUUCUGUGCAGUUCUACCAGAAAUUCAGAAACCGGAAAGGAA | 1.37 ratio |
| AAAGCCCAAGUAUUUUGAAAAAACUCGAACAGAUUUGUCAAGGGUAACCAGCUUGGAGUCUAGCAAUUUGCCAAUGUGUUUACCAAUCUGGGGGCUUGUUUUUCUUUUCUUCUUUCAAAU | 0.329 ratio |
| UCCCUGUGCUUACUAAAAUGGCUUGUAAAGAAGUUUUUCCAAGCUGUAACCCAUGCUGUUAUUAUAGUUGCUGCAAAAUGUUCUUCCUGAUAUUGAUUUUAUUUGUUAACUGAAGGUCUC | 0.472 ratio |
| CUGAAAAACACAGAUAUCAAAGUUGUUGACUUUGGAAGUGCAACGUAUGAUGAUGAACAUCAUAGUACUUUGGUGUCUACCCGGCACUACAGAGCUCCCGAGGUCAUUUUGGCUCUAGGU | 0.264 ratio |

Sample 2
Target: Interferon regulatory factor 3, full length, phosphomimetic (IRF3, Homo sapiens, UniProt Q14653, residues 1-427, S386D/S396D/S398D/S402D/T404D/S405D)
Sequence of UniProt Q14653 (whole entry, unmodified, looked up): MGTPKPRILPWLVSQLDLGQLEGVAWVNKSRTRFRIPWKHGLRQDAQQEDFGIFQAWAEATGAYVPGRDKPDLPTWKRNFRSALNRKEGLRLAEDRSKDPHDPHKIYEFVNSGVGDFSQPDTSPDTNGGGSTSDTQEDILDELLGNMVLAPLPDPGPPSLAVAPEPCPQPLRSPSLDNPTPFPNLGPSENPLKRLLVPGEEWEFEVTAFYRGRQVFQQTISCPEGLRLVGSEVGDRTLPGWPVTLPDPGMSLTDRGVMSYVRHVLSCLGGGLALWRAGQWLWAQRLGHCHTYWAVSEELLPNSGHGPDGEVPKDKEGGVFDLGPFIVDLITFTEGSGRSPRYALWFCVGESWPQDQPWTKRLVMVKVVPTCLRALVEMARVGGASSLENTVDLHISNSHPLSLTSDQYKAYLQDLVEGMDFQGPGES
Technique: protein-binding microarray
Molecule type: double-stranded DNA, one strand shown
Matrix: in vitro
Tested at: 2540 nM top
Setting: 60-bp whole probe
Added: salmon DNA 0.4 mg/ml
Relative to: random background probes
Reading: higher = stronger binding
Constant ends, left off below: GCCTAGCAC … GTCTTGATTCGCTTGACGCTGCTG
| Sequence | fitted relative affinity [z-score] |
| --- | --- |
| GACTATCTCAGTCTCGAGACGTGCTAG | 0.671 |
| GACGGTTTCGGCCTCGGGACGTGCTAG | 3.34 |
| TCATATTTAAGCTCCTATACTGTGCTA | 0.725 |
| TTAGGTTTAGACACTGGGTTAGTGCTA | -0.41 |
| GACGGACTGGTTATCGGGACGTGCTAG | -0.274 |
| TTAGGTCTCGATCTCGGTTAGTGCTAG | 1.01 |
| TTAGGTCTTGGACTGGGTTAGTGCTAG | -0.966 |
| TTCAGTTTTCTTTTCCATTTGTGCTAG | 6.76 |
| TTAGGTTTCGGTTGCGGTTAGTGCTAG | 6.3 |
| TTAGATATCAGACTGGATTAGTGCTAG | 0.291 |
| GGAAAAATGATGTTTTAGGTCGTGCTA | 0.0885 |
| TCAGTATTATTTATTGTACTGTGCTAG | 0.826 |
| TTAGGTTTCGGACTGGGTTTGTGCTAG | 4.09 |
| TTAGGTCTCGGTATCGTTTAGTGCTAG | 1.81 |
| TATTTTTTCTGAACCATTTTGTGCTAG | 1.91 |
| TTTCTTTTCTTTTCTTTTTTGTGCTAG | 7.52 |
| TTAGGTATCTTTATCCTTTAGTGCTAG | 1.71 |
| TCAATTTTCTTTAACTCACTGTGCTAG | 1.24 |
| TTAGAACCGGGGACTGGATTAGTGCTA | -0.722 |
| TTAGCTATCGGTATCGGTTAGTGCTAG | 3.21 |
| TTAGATACCAGTCTCGATTAGTGCTAG | 1.46 |
| GACGAGCTGGGGTTTCGAGACGTGCTA | 0.027 |
| TTAGAACTGCTACTGCTTTAGTGCTAG | -0.666 |
| TTAGAACTGAGTTTGGATTAGTGCTAG | -0.359 |

Sample 3
Target: RNA binding protein fox-1 homolog 2, RRM domain, GST-SBP tag (RBFOX2, Homo sapiens, UniProt O43251-10, residues 100-194)
Technique: RNA Bind-n-Seq
Molecule type: RNA
Matrix: in vitro
Tested at: 365 nM
Setting: natural RNA segment, single round, ends assumed
Relative to: no-protein control
Reading: higher = stronger binding
Constant ends, left off below: GGGAGUUCUACAGUCCGACGAUC … UGGAAUUCUCGGGUGCCAA
Target sequence (chain): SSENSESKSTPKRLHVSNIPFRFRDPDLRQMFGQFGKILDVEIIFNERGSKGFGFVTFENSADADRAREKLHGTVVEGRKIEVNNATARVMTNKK
| Sequence | RBNS enrichment (R) |
| --- | --- |
| AUGCAAUAAUAAAAUCAGCAUCUGGGUCUUUGCAGCUGUCAGUUGUUCUUUAAACUCUAGGAUCCAUCUUUGGACCAAAAGUCUGGUCUGGGCCUAGGAUGGCAUUGGCC | 1.36 |
| UUAGGAGAAGUCUUUGUAGUCUCUUUAUGUUCAUAAUGAAUACUGUAUCAAUAUUUCCUAACAUGAAGCAGUCAAACAUGUAUGGCACAUACUGACCAGACGUCAGUCUG | 0.316 |
| GUUACAUCAGAAUGUCAGAUGGAAGAAAAACAAGCUGGCCCUGGGCAAAAUGCUCAACUGUCAGCCCCGCAAGUAGACAGCUGUGUGCCGGACACCACCUAGCUGCAGCA | 1.42 |
| CAAGCACCGAGCAAACCCUAGGGUGUGCCUCACCUGCGAUGCUGUGGGCAAACACUUCUCAGCUGGUCCAUUUUUACAACGAUUGAAAAUCUAGAAGCCUUCUCAUGUUG | 0.288 |
| GCAAAGGGCCUGUCCCCGGGCAGAAGAUGAAGCCCCUACCCGUGGACUGUGUGGUUCCAUCUCUGGCCAGGCCACUUCCAGCCAGCAAGGACACCAGAGGCUGCCUUAGC | 0.223 |
| ACACUUGCAGGACUGAAAGGCUGCUCUGGUGAGGCAGCCUCUGUUUAAACCGGCCCCACAUGAAGAGAACAUCCCUUGAGACGAAUUUGGAGACUGGGAUUAGAGCCUUU | 0.653 |
| GCAGGAUUCUAUUUUGAGGGAAAAGACAGUAUCCUUAUUACCUUUUGUUUGUUUAAUAGCACAAAUGCUUAUUUGUUAUCCAAAAACAACCUCCUUCUUAUCUGUGAUAA | 0.389 |
| AUAAAAUGAGAAGAGACCAUUCCAUCAUUGAAGUGUUGGAAUAUAAAAAGACAUUCCAGAGCAUAGCCUUUUGGUAACUUUCUAGGUAAUCUUGCAAUCUCUCCAUACUG | 0.349 |
| CCCACCAUGCGCUGCUCAACCUCUCUCCUUCUGGCGCAAGAGAACAUUUCUAGAAAAAACUACUUUUGUACCAGUGUGAAUAAAGUUAGUGUGUUGUCUGUGCAGCUGCA | 0.235 |
| AAACAUUCCACUCCUGCUUUCCUAAGGAUGAAACAGUGAUAAUGUGAACUCAAAUGAGGUUUCCUGGGUAAUGUGACACCUGCAGAAACUAUAGAGCGUCAUUUAUACGU | 0.384 |
| GAGAAAAAUUUGAACGAGGCUAGUGCAAUGUUUUGCUGAUAGAUUACAUUGUUAGGGAGCUGGUGAUUUUUUGCCAUGGUCGUAUCGUGGACAGCUUUUCCGUGGAAAUU | 0.474 |
| CCAAAGGGGACUCGGUUGGGAGAGCCGCUUAGGGGCCAGACCUGGGUCCCCCUGCAGGUCCCCAGGCAGCAGACAAUUCCACCUUCCCUGCCCCAGGACCUUGAGAGACA | 0.402 |

Sample 4
Target: Histone acetyltransferase KAT6A, winged helix 2, GST fusion (KAT6A, Homo sapiens, UniProt Q92794, residues 85-181)
Technique: protein binding microarray
Molecule type: double-stranded DNA, one strand shown
Matrix: in vitro
Tested at: not given
Setting: 8-mer, flanks averaged, mean of 2 arrays, mostly near background
Relative to: not given
Reading: higher = stronger binding
Construct (chain): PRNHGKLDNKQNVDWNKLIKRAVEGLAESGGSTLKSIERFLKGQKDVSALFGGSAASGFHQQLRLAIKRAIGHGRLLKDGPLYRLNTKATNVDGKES
| Sequence | E-score |
| --- | --- |
| TAGAACTA | 0.11 |
| ATGTCTCA | -0.108 |
| GCACTCCA | 0.105 |
| CTGTAGGC | -0.0448 |
| ATGGAAGA | -0.00391 |
| CAGACTCA | -0.0585 |
| ACGGCTAG | -0.112 |
| ACCGGCGT | -0.104 |
| AGGATTAT | -0.0437 |
| GGGCCTTA | -0.141 |
| AATACCCT | -0.101 |
| CCGATGGA | -0.104 |
| CTCCCTTA | -0.161 |
| TACATTGA | -0.0285 |
| AGTGGTGA | -0.0483 |
| CAATGGGC | -0.0758 |
| CAGGAGCA | 0.0865 |
| TACAACGA | 0.0107 |
| CCGGCGGC | 0.246 |
| CCATGTGC | -0.0248 |
| CATATGCG | -0.0963 |
| CTGGACAA | -0.149 |
| AGGTCGAT | 0.172 |
| AATTCCAA | 0.0443 |
| ATACAAAA | 0.0686 |

Repeated from above (sample 2):
| Sequence | fitted relative affinity [z-score] |
| --- | --- |
| TTTCTTTTCTTTTCTTTTTTGTGCTAG | 7.52 |
| TTAGGTATCTTTATCCTTTAGTGCTAG | 1.71 |
| TCAATTTTCTTTAACTCACTGTGCTAG | 1.24 |
| TTAGAACCGGGGACTGGATTAGTGCTA | -0.722 |
| TTAGCTATCGGTATCGGTTAGTGCTAG | 3.21 |
| TTAGATACCAGTCTCGATTAGTGCTAG | 1.46 |
| GACGAGCTGGGGTTTCGAGACGTGCTA | 0.027 |
| TTAGAACTGCTACTGCTTTAGTGCTAG | -0.666 |
| TTAGAACTGAGTTTGGATTAGTGCTAG | -0.359 |
